# Published values gathered from unrelated publications.
# Lines come from different studies, so protocols differ. ± gives the spread as reported.
# Organism: Salmonella typhimurium
SMILES,test,system,conditions,scale,endpoint,result
N#C[C@@]1(n2ccc(N)nc2=O)O[C@H](CO)[C@@H](O)[C@H]1O,,TA100,"50 µM, without S9",reference: control,viability,80%
OC(CCN1CC=C(c2ccc(F)cc2)CC1)c1ccc(F)c2ccccc12 (stereo not drawn),"genotoxicity, SOS/umu test",TA1535/pSK1002,"0.008 mg/mL, 4 h, without S9, lower range",,induction factor,0.7
O=NN1CCN(C2CCCC2)CC1,"mutagenicity, Ames plate incorporation",TA100,"500 µg/plate, 3 d, without S9, methanol",,revertant colonies per plate,154 ± 3
O=[N+]([O-])c1ccc(N2CCN(CCC(O)c3ccc(F)cc3)CC2)c(C(F)(F)F)c1 (stereo not drawn),SOS/umu test,TA1535/pSK1002,"0.125 mg/mL, 4 h, with S9, lower range",,survival,134%
CN(CC(C)(C)C)N=O,"mutagenicity, Ames plate incorporation",TA100,"5000 µg/plate, without S9, methanol",,revertant colonies per plate,236 ± 40
COc1cccc(-c2n[nH]c(SCc3ccccn3)n2)c1OC,"Ames test, plate incorporation",TA100,"0.50 mg/plate, with rat liver S9",,revertant colonies per plate,104
CN(N=O)c1ccc(F)cc1,"mutagenicity, Ames plate incorporation",TA100,"5000 µg/plate, 3 d, without S9, methanol",,revertant colonies per plate,128 ± 12
Cc1cc(C(=O)NC(C)(C)COc2cccc3c2C(N)=NS(=O)(=O)N3)cc(C)n1,"Ames test, confirmatory",TA98,5000 µg/plate,reference: solvent control,revertant ratio,1.1
O=[N+]([O-])c1ccc(N2CCC(NCCC(O)c3ccc(F)c4ccccc34)CC2)c(C(F)(F)F)c1 (stereo not drawn),SOS/umu test,TA1535/pSK1002,"6.1e-05 mg/mL, 4 h, without S9",,survival,108%
CC(=O)N1CCC(C(=O)N2CCN3C(=O)c4cc(-c5ccccc5)ccc4NC(=O)C3C2)CC1 (stereo not drawn),,TA98,"1.58 µg/plate, with: rat liver S9",reference: vehicle,fold increase in revertants,1.2
Fc1ccc(C2=CCNCC2)cc1,SOS/umu test,TA1535/pSK1002,"0.125 mg/mL, 4 h, with S9, full range",,survival,105%
COCCN(CCOC)N=O,"mutagenicity, Ames plate incorporation",TA1537,"1500 µg/plate, 3 d, without S9, methanol",,revertant colonies per plate,14 ± 5

# Repeated from above:
SMILES,test,system,conditions,scale,endpoint,result
CC(=O)N1CCC(C(=O)N2CCN3C(=O)c4cc(-c5ccccc5)ccc4NC(=O)C3C2)CC1 (stereo not drawn),,TA98,"1.58 µg/plate, with: rat liver S9",reference: vehicle,fold increase in revertants,1.2
